Assay results from different studies.
Every numbered part comes from another study and shows a few of its results, in no order.

Study 1
Cell line: A-375
Tested at: 100 µM
Time: 36 h
Measurement: viability
CCCc1nc(C)c2c(=O)[nH]c(-c3cc(S(=O)(=O)N4CCN(CC)CC4)ccc3OCC)nn12: 11.6%
Cn1nnc(-c2ccc(-c3ccc(N4C[C@H](CO)OC4=O)cc3F)cn2)n1: 90.9%
CN(C)CCC(c1ccccc1)c1ccccn1 (centres unmarked): 107%
Cc1ccnc(NS(=O)(=O)c2ccc(N)cc2)n1: 114%
C=CC1=C(C(=O)O)N2C(=O)[C@@H](NC(=O)/C(=N\OCC(=O)O)c3csc(N)n3)[C@H]2SC1: 103%
CC[C@@]1(O)C(=O)OCc2c1cc1n(c2=O)Cc2cc3c(CN(C)C)c(O)ccc3nc2-1: 23.2%
C[N+]1(C)[C@@H]2CC[C@H]1C[C@@H](OC(=O)C(O)c1ccccc1)C2 (some centres unmarked): 102%
C#CC1(O)CC[C@H]2[C@@H]3CCC4=CC(=O)CC[C@@H]4[C@H]3CC[C@@]21CC (some centres unmarked): 50.2%
C=C1CC[C@@H]2[C@](C)(CO)[C@H](O)CC[C@@]2(C)[C@@H]1C/C=C1/C(=O)OC[C@H]1O: 4.15%
COc1ccc2[nH]cc(CCNC(C)=O)c2c1: 99.7%
O=C(O)c1cc(=O)[nH]c(=O)[nH]1: 110%
NS(=O)(=O)c1cc2c(cc1Cl)NC(C(Cl)Cl)NS2(=O)=O (centres unmarked): 121%
O=c1[nH]cnc2c1ncn2[C@H]1CC[C@@H](CO)O1: 104%

Study 2
Organism: Sarcocystis neurona
Read-out: parasite growth
Tested at: 10 µM
Time: 96 h
Setting: second screen
Baseline: untreated
Measurement: log2 fold change
COc1ccc(OC)c(C(O)CNC(=O)CN)c1 (centres unmarked): 0.23
Nc1nc(N)c2nc(-c3ccccc3)c(N)nc2n1: 0.89
NS(=O)(=O)c1cc(C(=O)O)c(NCc2ccco2)cc1Cl: 0.2
CCc1ccc(CCOc2ccc(CC3SC(=O)NC3=O)cc2)nc1 (centres unmarked): -0.15
CSc1nc2cc(Cl)c(Oc3cccc(Cl)c3Cl)cc2[nH]1: 0.13
CN(C)CCCN1c2ccccc2Sc2ccc(Cl)cc21: -0.97
O=c1[nH]c(=O)n(C2CCCO2)cc1F (centres unmarked): 0.08
C[C@H](CCC(=O)O)[C@H]1CC[C@H]2[C@@H]3[C@@H](O)C[C@@H]4C[C@H](O)CC[C@]4(C)[C@H]3CC[C@]12C: 0.26
COc1ccccc1OCCNCC(O)COc1cccc2[nH]c3ccccc3c12 (centres unmarked): -0.28
CSc1ccc2c(c1)N(CCC1CCCCN1C)c1ccccc1S2 (centres unmarked): -0.8
O=C(O[C@H]1[C@H](Oc2ccccc2COC(=O)C2(O)C=CCCC2=O)O[C@H](CO)[C@@H](O)[C@@H]1O)c1ccccc1 (some centres unmarked): 0.5
COC1=CC(=O)C[C@@H](C)[C@]12Oc1c(Cl)c(OC)cc(OC)c1C2=O: 0.56
CN(C)[C@@H]1C(O)=C(C(N)=O)C(=O)[C@@]2(O)C(O)=C3C(=O)c4c(O)cccc4[C@@](C)(O)[C@H]3[C@H](O)[C@@H]12: -0.08
CC(=O)O[C@]1(C(C)=O)CC[C@H]2[C@@H]3C[C@H](C)C4=CC(=O)CC[C@]4(C)[C@H]3CC[C@@]21C: 0.49
CCCCc1nc(Cl)c(CO)n1Cc1ccc(-c2ccccc2-c2nn[nH]n2)cc1: 0.23

Study 3
Target: Diamine acetyltransferase 1 (Homo sapiens, UniProt P21673)
Action: inhibitor
Tested at: 10 µM
Baseline: control
Measurement: remaining activity
Residues (P21673 1-171): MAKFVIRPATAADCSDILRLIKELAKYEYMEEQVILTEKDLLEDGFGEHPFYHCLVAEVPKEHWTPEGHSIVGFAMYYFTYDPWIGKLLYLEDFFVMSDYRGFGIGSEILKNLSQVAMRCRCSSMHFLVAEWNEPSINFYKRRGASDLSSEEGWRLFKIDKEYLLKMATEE
CC(=O)O[C@@H]1C[C@H]2CC[C@]1(C)C2(C)C: 77.7%
C[C@@H]1O[C@@H](O[C@@H]2[C@@H](O)[C@H](O)[C@@H](CO)O[C@H]2c2c(O)cc(O)c3c(=O)cc(-c4ccc(O)cc4)oc23)[C@H](O)[C@H](O)[C@H]1O: 103%
O=C(/C=C/c1ccc(O)c(O)c1)O[C@@H]1C[C@@](OC(=O)/C=C/c2ccc(O)c(O)c2)(C(=O)O)C[C@@H](O)[C@@H]1O: 101%
CC(C)=CCc1cc2c(cc1O)oc(=O)c1c3ccc(O)cc3oc21: 102%
CCCCC[C@H](O)CC(=O)CCc1ccc(O)c(OC)c1: 107%
CCCCCCCC(=O)OC: 82.8%
COc1cc(/C=C/C=O)ccc1O: 104%
C[C@]12CC[C@@H]3c4ccc(O)cc4CC[C@H]3[C@@H]1C[C@@H](O)[C@@H]2O: 105%
COc1ccc(/C=C/C(=O)c2ccc(OC)cc2)cc1: 84.4%
CC(=O)c1ccc(O)cc1O: 86.2%
O=C(/C=C/c1ccc(O)c(O)c1)NCCc1ccc(O)cc1: 103%
C[C@@H]1CC[C@@]2(OC1)O[C@H]1C[C@H]3[C@@H]4CC=C5C[C@@H](O[C@@H]6O[C@H](CO)[C@@H](O[C@@H]7O[C@H](CO)[C@@H](O)[C@H](O)[C@H]7O)[C@H](O)[C@H]6O[C@@H]6O[C@@H](C)[C@H](O)[C@@H](O)[C@H]6O)CC[C@]5(C)[C@H]4CC[C@]3(C)[C@H]1[C@@H]2C: 96.3%
Cc1cccc(C(=O)O)c1O: 101%
COc1cccc(OC)c1O: 89.1%
COc1cc(-c2cc(=O)c3c(O)cc(O)cc3o2)ccc1O: 78.5%
COc1c(O)cc(O)c2c(=O)cc(-c3ccccc3)oc12: 102%
O=C(/C=C/c1ccc(O)cc1)c1ccc(O)cc1O: 124%

Study 4
Cell line: sample BA colorectal tumour organoid
Tested at: 1 µM
Baseline: DMSO
Measurement: viability
COc1cc(Nc2ccnc3ccc(Br)cc23)cc(OC)c1OC: 30.5%
CCN(CC)S(=O)(=O)Nc1cccc(-c2ccc3c(NC(=O)C4CC4)n[nH]c3c2)c1: 56.3%
O=C(O)c1ccc(-c2coc3ncc(-c4ccccc4)cc23)cc1Cl: 119%
Cn1cc(-c2ccc3occ(-c4ccccc4-c4ccccc4)c3n2)cn1: 115%
CC(C)C(=O)Nc1n[nH]c2cc(-c3cccc(NS(=O)(=O)C4CC4)c3)ccc12: 105%

For quick reference, copied from above (study 2):
CSc1ccc2c(c1)N(CCC1CCCCN1C)c1ccccc1S2 (centres unmarked): -0.8
CSc1nc2cc(Cl)c(Oc3cccc(Cl)c3Cl)cc2[nH]1: 0.13
COc1ccc(OC)c(C(O)CNC(=O)CN)c1 (centres unmarked): 0.23
